Measurements from different studies.
Parts stem from different laboratories: compare values within a part only.

Series 1
Target: Sal-like protein 4, full length isoform B (SALL4, Homo sapiens, UniProt Q9UJQ4-2, residues 1-616)
Technique: universal PBM
Form: double-stranded DNA, one strand shown
Sample: in vitro
Tested at: not given
Setting: 8-mer, flanks averaged, mean of replicates
Direction: higher = stronger binding
The E-score of `GGTGTCCA` is reported as -0.0922.
The E-score of `ATCTTTAA` is reported as 0.225.
With `GTGGCTAA` the E-score was 0.0176.
`TATCACGA` gave an E-score of 0.134.
For `ATGCCCCA`, the E-score was -0.249.
With `AGTTCTGC` the E-score was -0.0601.

Series 2
Target: Histone acetyltransferase KAT6A, winged helix 2, GST fusion (KAT6A, Homo sapiens, UniProt Q92794, residues 85-181)
Technique: protein binding microarray
Form: double-stranded DNA, one strand shown
Sample: in vitro
Tested at: not given
Setting: 8-mer, flanks averaged, mean of 2 arrays, mostly near background
Baseline: not given
Direction: higher = stronger binding
Target sequence (chain): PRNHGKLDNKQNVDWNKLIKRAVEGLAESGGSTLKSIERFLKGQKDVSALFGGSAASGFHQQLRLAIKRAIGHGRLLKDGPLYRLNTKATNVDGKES
For `AGTTTAAC`, the E-score was -0.151.
`CCTTAATC` has an E-score of 0.0287.
With `AGAGAGTC` the E-score was -0.21.
`CCATTGTA` gave an E-score of -0.121.
For `CTATATCA`, the E-score was -0.12.
`AAGCTACT` gave an E-score of 0.00353.

Series 3
Target: Ras GTPase-activating protein-binding protein 1, full length (G3BP1, Homo sapiens, UniProt Q13283)
Sequence of UniProt Q13283 (whole entry, looked up): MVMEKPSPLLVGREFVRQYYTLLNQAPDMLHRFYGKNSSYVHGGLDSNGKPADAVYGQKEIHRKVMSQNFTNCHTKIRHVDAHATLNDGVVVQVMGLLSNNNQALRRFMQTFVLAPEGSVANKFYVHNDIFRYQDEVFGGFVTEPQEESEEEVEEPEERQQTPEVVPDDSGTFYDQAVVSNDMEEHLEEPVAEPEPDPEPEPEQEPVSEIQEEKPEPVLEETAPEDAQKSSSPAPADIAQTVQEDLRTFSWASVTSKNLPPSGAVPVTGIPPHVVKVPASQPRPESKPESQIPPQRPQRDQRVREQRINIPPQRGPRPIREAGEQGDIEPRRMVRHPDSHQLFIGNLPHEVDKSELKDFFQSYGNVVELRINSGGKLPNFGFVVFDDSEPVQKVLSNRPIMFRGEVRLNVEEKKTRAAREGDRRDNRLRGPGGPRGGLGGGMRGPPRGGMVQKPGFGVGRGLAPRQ
Technique: RNA Bind-n-Seq
Form: RNA
Sample: in vitro
Tested at: 200 nM
Setting: whole 134-nt RNA, ends assumed
With: 150 mM LiCl
Baseline: input library
Direction: higher = stronger binding
All molecules: 7-deaza-guanosine replaces G
For `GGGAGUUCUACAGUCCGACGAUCGUCCUGUGCUACACAUCGUAUGUACCGAAUCGGGGUUUUUUUGGGGAAAGGGGAGGGGAAAGUAUUAUGUUACGCCGUUCGGAUCUGCACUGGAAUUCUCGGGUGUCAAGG`, the log2 enrichment was 0.0139.
For `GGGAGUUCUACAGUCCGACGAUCCAAGUCCUGUGCUACACAUCGUAUGUACCGAAUCGGUUUUUUUGGAAAGGUUUGGAAAGUAUUAUGUUACGCCGUUCGGAUCUGCACUUCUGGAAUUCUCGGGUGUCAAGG`, the log2 enrichment was -2.09.
`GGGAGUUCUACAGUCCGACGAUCAAGUCCUGUGCUACACAUCGUAUGUACCGAAUCGGGAAAAAGGGUUUUUGGGUGGGAAAGUAUUAUGUUACGCCGUUCGGAUCUGCACUUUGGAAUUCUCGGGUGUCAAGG` gave a log2 enrichment of -0.746.
`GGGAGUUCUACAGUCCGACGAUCUCCUGUGCUACACAUCGUAUGUACCGAAUCGGGGAAAAAAGGGAAAAAAGGAAAAAAGGGAAAGUAUUAUGUUACGCCGUUCGGAUCUGCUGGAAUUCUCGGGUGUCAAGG` gave a log2 enrichment of 0.317.
`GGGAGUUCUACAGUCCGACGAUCUGACCUGCACGGACAUCAACACCCUGACAAGGCAGAAGGAACUUCUCCUGCAGAAGCUGAGCACAUUUGAGGAGACCAACCGCACCCUCCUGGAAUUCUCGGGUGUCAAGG` gave a log2 enrichment of 0.571.

Single results of other studies
`PhoQ, residues 284 288 289 292 302 303 GLASVI` gave a fold induction of 15.5 (PhoP, residues 12 14 15 18 19 AQCLL (Escherichia coli, UniProt P23836); Sort-seq, refers to: YFP reporter; E. coli; PhoQ-PhoP variant library, with: 10 µM Mg2+; baseline: high Mg2+ state, higher = stronger signaling).

Excerpt of the above (series 1):
For `ATGCCCCA`, the E-score was -0.249.
With `AGTTCTGC` the E-score was -0.0601.
